Experimental data of several laboratories.
Protocols differ between the studies behind these lines.
Chain of UniProt O75460 (whole entry, looked up): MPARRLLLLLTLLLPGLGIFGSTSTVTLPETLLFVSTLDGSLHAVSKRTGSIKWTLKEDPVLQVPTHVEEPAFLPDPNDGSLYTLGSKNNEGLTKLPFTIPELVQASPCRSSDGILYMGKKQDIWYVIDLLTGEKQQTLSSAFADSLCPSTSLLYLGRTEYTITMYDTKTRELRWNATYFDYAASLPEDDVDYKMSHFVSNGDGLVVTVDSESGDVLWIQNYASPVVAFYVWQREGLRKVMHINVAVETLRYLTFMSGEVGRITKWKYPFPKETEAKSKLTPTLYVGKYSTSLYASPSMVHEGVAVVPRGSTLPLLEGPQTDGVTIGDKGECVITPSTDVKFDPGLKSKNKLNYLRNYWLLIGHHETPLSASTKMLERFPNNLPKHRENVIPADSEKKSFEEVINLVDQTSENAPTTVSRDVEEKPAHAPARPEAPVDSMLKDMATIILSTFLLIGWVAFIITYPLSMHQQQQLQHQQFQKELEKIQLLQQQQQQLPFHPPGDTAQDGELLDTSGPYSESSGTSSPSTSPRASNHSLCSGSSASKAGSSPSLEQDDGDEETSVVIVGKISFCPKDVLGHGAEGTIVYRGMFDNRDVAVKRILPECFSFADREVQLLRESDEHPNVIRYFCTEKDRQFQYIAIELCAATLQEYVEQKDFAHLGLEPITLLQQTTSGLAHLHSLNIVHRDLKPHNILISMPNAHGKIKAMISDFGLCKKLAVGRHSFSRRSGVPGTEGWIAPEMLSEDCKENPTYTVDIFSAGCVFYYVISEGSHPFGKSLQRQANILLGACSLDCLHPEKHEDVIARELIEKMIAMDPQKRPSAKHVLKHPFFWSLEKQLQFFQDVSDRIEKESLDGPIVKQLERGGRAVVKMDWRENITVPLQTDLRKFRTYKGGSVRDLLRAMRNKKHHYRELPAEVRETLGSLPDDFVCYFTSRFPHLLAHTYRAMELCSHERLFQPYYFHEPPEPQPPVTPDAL
Chain of UniProt O75582 (whole entry, looked up): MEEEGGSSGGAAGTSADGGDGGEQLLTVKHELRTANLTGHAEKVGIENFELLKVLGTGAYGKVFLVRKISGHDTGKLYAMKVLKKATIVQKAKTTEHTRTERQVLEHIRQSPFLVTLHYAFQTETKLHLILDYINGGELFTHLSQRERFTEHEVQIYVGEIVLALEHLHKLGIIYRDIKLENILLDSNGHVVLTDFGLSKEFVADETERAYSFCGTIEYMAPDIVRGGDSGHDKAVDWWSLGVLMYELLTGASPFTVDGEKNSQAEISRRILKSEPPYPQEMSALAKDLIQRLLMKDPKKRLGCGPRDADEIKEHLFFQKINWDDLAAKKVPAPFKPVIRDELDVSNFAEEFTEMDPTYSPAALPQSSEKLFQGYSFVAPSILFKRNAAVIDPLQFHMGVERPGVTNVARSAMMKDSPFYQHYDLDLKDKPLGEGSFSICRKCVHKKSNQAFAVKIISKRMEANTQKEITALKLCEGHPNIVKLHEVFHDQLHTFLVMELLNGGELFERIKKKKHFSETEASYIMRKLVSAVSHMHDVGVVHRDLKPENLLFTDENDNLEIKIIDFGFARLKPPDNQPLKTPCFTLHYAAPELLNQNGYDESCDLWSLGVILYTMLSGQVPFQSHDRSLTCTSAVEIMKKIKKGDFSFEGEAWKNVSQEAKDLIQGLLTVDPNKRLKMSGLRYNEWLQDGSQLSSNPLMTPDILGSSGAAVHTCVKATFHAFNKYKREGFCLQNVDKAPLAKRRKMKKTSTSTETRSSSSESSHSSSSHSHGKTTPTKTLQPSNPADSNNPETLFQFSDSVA
Chain of UniProt Q8N752 (whole entry, looked up): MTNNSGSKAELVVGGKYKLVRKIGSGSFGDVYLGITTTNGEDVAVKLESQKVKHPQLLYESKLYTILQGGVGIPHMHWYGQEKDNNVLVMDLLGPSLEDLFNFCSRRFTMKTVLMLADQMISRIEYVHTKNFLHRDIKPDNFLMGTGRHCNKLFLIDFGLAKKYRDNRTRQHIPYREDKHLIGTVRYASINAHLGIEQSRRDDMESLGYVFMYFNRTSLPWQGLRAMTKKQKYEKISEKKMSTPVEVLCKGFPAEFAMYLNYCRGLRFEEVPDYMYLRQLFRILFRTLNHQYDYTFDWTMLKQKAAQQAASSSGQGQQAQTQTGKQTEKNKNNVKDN

| SMILES | tested on | test | system | conditions | quantity | result |
| --- | --- | --- | --- | --- | --- | --- |
| CCC[C@@](N)(CO)CCc1ccc(OCCCCCC(C)C)cc1 |  |  | mouse, plasma | oral, 50 mg/kg | Cmax | 1370 nM |
| CC(=O)c1c(C)c2cnc(Nc3ccc(C4CCN(CCS(C)(=O)=O)CC4)cn3)nc2n(C2CCCC2)c1=O |  | general toxicity | beagle dog | oral, multiple doses | NOAEL | 2 mg/kg/day |
| O=C(Nc1cccnn1)N1CCN([C@@H]2CCOc3cc(C(F)(F)F)ccc32)CC1 |  |  | male Sprague-Dawley rat, plasma | oral, 1 mg/kg, 4 h | concentration | 100 ng/mL |
| CC(C)C[C@H](NC(=O)[C@H](Cc1ccccc1)NC(=O)[C@H](Cc1ccccc1)NC(=O)Cc1ccc(-c2ccccc2)cc1)C(=O)N[C@@H](CCCCN)C(=O)N[C@@H](CCCNC(=N)N)C(=O)N[C@H](C(=O)N[C@@H](Cc1c[nH]c2ccccc12)C(=O)N[C@@H](CCCCN)C(=O)N[C@@H](CCCNC(=N)N)C(=O)O)C(C)C |  | metabolic stability, mass spectrometry | mouse, liver microsomes | 1 h | compound remaining | 9.98% |
| CC[C@H](C)CCCCC(=O)N[C@@H](CCN)C(=O)N[C@H](C(=O)N[C@@H](CCN)C(=O)N[C@H]1CCNC(=O)[C@H]([C@@H](C)O)NC(=O)[C@H](CCN)NC(=O)[C@H](CCN)NC(=O)[C@H](CC(C)C)NC(=O)[C@@H](CC(C)C)NC(=O)[C@H](CCN)NC1=O)[C@@H](C)O |  |  | male Sprague-Dawley rat, plasma | subcutaneous, 10 mg/kg | Cmax | 2750 ng/mL |
| Nc1ncc(-c2nc(N3CCOCC3)nc(N3CCOCC3)n2)c(C(F)F)n1 | Ribosomal protein S6 kinase alpha-5, C-terminal kinase domain (RPS6KA5, Homo sapiens, UniProt O75582) | binding, competition with immobilised ligand |  | 10 µM | remaining binding | 88% |
| [2H]c1c([2H])c([C@]2([2H])CCCN2C(=O)C(C)(C)Oc2ccc3cn[nH]c3c2)c([2H])c([2H])c1C([2H])([2H])[2H] | CSNK1A1L (Homo sapiens, UniProt Q8N752) | binding, competition with immobilised ligand |  | 1 µM | remaining binding | 86% |
| CC(C)CC(=O)OC[C@H]1O[C@@](C#N)(c2ccc3c(N)ncnn23)[C@H](O)[C@@H]1O |  |  | rat, plasma |  | fraction unbound | 0.0894 |
| Cc1nn(C)cc1-c1nc2c(N3CCN(Cc4ccc(Cl)cc4)CC3)c(Cl)cnc2[nH]1 | ERN1 (Homo sapiens, UniProt O75460) | binding, competition with immobilised ligand |  | 1 µM | remaining binding | 83% |
| N=C(N)NCCC[C@@H](NC(=O)[C@@H](N)Cc1ccccc1)C(=O)N[C@@H](Cc1ccccc1)C(=O)N[C@@H](CCCCN)C(N)=O |  |  | human, plasma | subcutaneous, 15 mg, multiple doses, once daily, patients | AUC(0-t) | 3300 ng·h/mL |
| [18FH] |  |  | mouse, bone | intravenous, 1 h | tracer uptake | 12 %ID/g |
| C=C(C)[C@@H]1CC[C@]2(NCCN3CCS(=O)(=O)CC3)CC[C@]3(C)[C@H](CC[C@@H]4[C@@]5(C)CC=C(C6=CC[C@@](COc7ncccc7C#N)(C(=O)O)CC6)C(C)(C)[C@@H]5CC[C@]43C)[C@@H]12 |  |  | human, plasma | oral, 100 mg, fed | AUC(0-t) | 6460 ng·h/mL |
| Nc1nc(-c2ccccc2)nc2[nH]nc(Nc3ccc(C(F)(F)F)cc3)c12 |  |  | mouse, plasma | oral, 100 mg/kg, 3 h | concentration | 1250 ng/mL |
| Cc1cc(OC(C)C(=O)N2CCc3ccccc32)ccc1Cl (stereo not drawn) | PFF0160c (Plasmodium falciparum, UniProt Q08210) | enzyme activity, inhibitor, absorbance |  |  | IC50 | 445 nM |
| Cl.Cn1c(=O)n(CCCCN2CCC3(CC2)OCc2ccccc23)c2ccccc21 |  |  | male Sprague-Dawley rat, plasma | intravenous, 5 mg/kg | AUC | 3850 ng·h/mL |
| CC(c1ccc(Cl)c(Cl)c1)c1nn2c(-c3ccccc3F)nnc2s1 (stereo not drawn) | PFF0160c (Plasmodium falciparum, UniProt Q08210, E182D) | enzyme activity, inhibitor, absorbance |  |  | IC50 | 1060 nM |
| CC(C)(N)CNC(=O)O[C@@H]1CCC[C@]2(C1)OOC1(O2)C2CC3CC(C2)CC1C3 (stereo partly drawn) |  |  | male CD-1 mouse, plasma | oral, 10 mg/kg | Cmax | 147 ng/mL |
| CN(C)C1(CNC(=O)c2ccc3c(c2)CCN3C(=O)c2ccccc2)CCOCC1 |  |  | male C57BL/6 mouse, brain | intraperitoneal, 50 mg/kg, 30 min, unbound | concentration | 597 nM |

A few entries again:
| SMILES | tested on | test | system | conditions | quantity | result |
| --- | --- | --- | --- | --- | --- | --- |
| O=C(Nc1cccnn1)N1CCN([C@@H]2CCOc3cc(C(F)(F)F)ccc32)CC1 |  |  | male Sprague-Dawley rat, plasma | oral, 1 mg/kg, 4 h | concentration | 100 ng/mL |
| CC(C)C[C@H](NC(=O)[C@H](Cc1ccccc1)NC(=O)[C@H](Cc1ccccc1)NC(=O)Cc1ccc(-c2ccccc2)cc1)C(=O)N[C@@H](CCCCN)C(=O)N[C@@H](CCCNC(=N)N)C(=O)N[C@H](C(=O)N[C@@H](Cc1c[nH]c2ccccc12)C(=O)N[C@@H](CCCCN)C(=O)N[C@@H](CCCNC(=N)N)C(=O)O)C(C)C |  | metabolic stability, mass spectrometry | mouse, liver microsomes | 1 h | compound remaining | 9.98% |
| CC[C@H](C)CCCCC(=O)N[C@@H](CCN)C(=O)N[C@H](C(=O)N[C@@H](CCN)C(=O)N[C@H]1CCNC(=O)[C@H]([C@@H](C)O)NC(=O)[C@H](CCN)NC(=O)[C@H](CCN)NC(=O)[C@H](CC(C)C)NC(=O)[C@@H](CC(C)C)NC(=O)[C@H](CCN)NC1=O)[C@@H](C)O |  |  | male Sprague-Dawley rat, plasma | subcutaneous, 10 mg/kg | Cmax | 2750 ng/mL |
